Measurements from different studies.
± marks the error that the study gave.

Structure (SMILES) | test | system | conditions | scale | endpoint | value
O=C(O)CC[C@H](NC(=O)N[C@@H](CCCCNC(=O)[C@H](Cc1ccc2ccccc2c1)NC(=O)[C@H]1CC[C@H](CNC(=O)CN2CCN(CC(=O)O)CCN(CC(=O)O)CCN(CC(=O)O)CC2)CC1)C(=O)O)C(=O)O |  | male BALB/c nude mice, LS174T-PSMA xenografts, liver | intravenous, 0.3 nmol, 2 h, radiolabelled (111In or 99mTc) | reference: tumour over liver | tumour-to-tissue ratio | 267 ± 73.5
CCc1cc(C(=O)NC)c2nccc(N3CCc4c(cc(Cn5ccnc5)cc4-c4cn(C)nc4C(F)(F)F)C3=O)c2c1 |  | Sprague Dawley rat | oral, 100 mg/kg once daily, 7 days |  | kidney weight | 2.59 ± 0.061 g
CCn1cc(C(=O)N2CCOCC2)c(=O)c2cc(NC3Cc4ccccc4C3)cnc21 |  | human, fed | oral suspension, 2000 mg/day twice daily, day 8, arithmetic mean |  | AUC(0-12) | 24900 ng·h/mL
Cc1ccc([C@@H]2O[C@H](CO)[C@@H](O)[C@H](O)[C@H]2O)cc1Cc1ccc(-c2ccc(F)cc2)s1 |  | Japanese type 2 diabetes patients | 25 mg, day 18, 24 h urine collection | reference: baseline | urinary chloride excretion change | -44.3 mEq
CCc1ccc(C(=O)Oc2ccc(C#N)c(F)c2)cc1 | refers to: compound | human pregnant women, male fetuses, cord serum | dose not given, paired maternal-cord samples, mean |  | concentration | 3.72 ng/mL
C[C@@H](Cn1ccc(-c2ccc(C#N)c(Cl)c2)n1)NC(=O)c1cc([C@@H](C)O)[nH]n1 |  | human, fasted, plasma | oral solution, 300 mg 14C-darolutamide, geometric mean |  | AUC(0-tlast) | 6920 ng·h/mL
COC(=O)c1cc(C)cc(NS(=O)(=O)c2cc(Cl)cc(Cl)c2O)c1 | colloidal aggregate formation, dynamic light scattering | 50 mM potassium phosphate buffer | 200 µM, pH 7.0, 1% DMSO | higher = more aggregation | DLS scattered light intensity | 881000 counts/s
[18F]c1ccc(-c2ccc3c(c2)[nH]c2ccncc23)cn1 | ex vivo biodistribution | B6SJL mouse, normal, pancreas | intravenous, 30 min |  | SUV | 1.38 ± 0.515
CC#CC(=O)N1CC[C@@H](n2c(=O)n(-c3ccc(Oc4ccccc4)cc3)c3c(N)ncnc32)C1 |  | human, fasting, plasma | oral, 320 mg once daily, cycle 1 day 28 |  | Tmax, median | 3 h
O=S(=O)(NCc1coc2ccc(F)cc12)c1cc(Cl)cc(Cl)c1O | colloidal aggregate formation, dynamic light scattering | 50 mM potassium phosphate buffer | 200 µM, pH 7.0, 1% DMSO | higher = more aggregation | DLS scattered light intensity | 338000 counts/s
O=C(O)CCCOc1ccc([18F])cc1-c1cc(-c2ccccc2C(F)(F)F)n(-c2ccccc2)n1 | gamma counting | male ddY mice, bone | intravenous, 2.1 MBq, 1 min |  | radioactivity uptake | 0.76 ± 0.3 SUV
O=C(CCCN1CCC(O)(c2ccc(Cl)cc2)CC1)c1ccc(F)cc1 |  | male Hartley guinea pig, anaesthetized | intravenous, 0.1 mg/kg, baseline before infusion |  | QTc interval | 332 ± 0.4 ms
O=C(O)CCC(=O)O.[2H]C([2H])([2H])Oc1cc(C)c2[nH]ccc2c1CN1CC[C@@H](C2CC2)C[C@H]1c1ccc(C(=O)O)cc1 | multiple ascending dose | healthy Chinese subjects | 200 mg once daily |  | subjects with TEAE Diarrhea | 12.5%
O=C(c1nc2n(n1)[C@H](c1ccccc1)C[C@@H]2F)C1CC1 |  | human | 225 mg single dose |  | fraction excreted in urine 0-72 h | 0 to 0.4%
COc1ncc(-c2nc3c(n2C(C)C)[C@H](c2ccc(Cl)cc2)N(c2cc(Cl)cn(C)c2=O)C3=O)c(OC)n1 |  | human patients, plasma | oral, 45 mg, cycle 1 day 1, low-dose |  | median Tmax | 2 h
O=C1Cc2cc(CCN3CCN(c4nsc5ccccc45)CC3)c(Cl)cc2N1 |  | male Hartley guinea pig, anaesthetized | intravenous, 0.1 mg/kg, baseline before infusion |  | QTc interval | 336 ± 0.4 ms
COc1ccc2c(c1)CN(C(=O)CCN1CCC(Cc3ccccc3)CC1)CC[S@@+]2[O-] | telemetry | conscious male beagle dogs | intravenous, 8 mg/kg, 4 h |  | PQ interval | 88 ± 9 ms
CC[C@H](C)CCCCC(=O)N[C@@H](CCN)C(=O)N[C@H](C(=O)N[C@@H](CCN)C(=O)N[C@H]1CCNC(=O)[C@H]([C@@H](C)O)NC(=O)[C@H](CCN)NC(=O)[C@H](CCN)NC(=O)[C@H](CC(C)C)NC(=O)[C@@H](Cc2ccccc2)NC(=O)[C@H](CCN)NC1=O)[C@@H](C)O |  | ESKD on long-term intermittent haemodialysis | intravenous infusion, 0.75 mg/kg single dose over 1 h, arithmetic mean |  | volume of distribution (Vz) | 32.4 L
C[C@H]1CN(C(=O)CC#N)[C@]12CCN(c1ncnc3[nH]ccc13)C2 |  | healthy human | oral, dose not given |  | subjects with Headache | 6.3%
COc1ccc(NC(=O)N2CCCCN3[C@H](CO)[C@H](c4ccc(C#Cc5ccccc5)cc4)[C@@H]3C2)cc1 |  | CD-1 mouse | intravenous, dose not given |  | Vss | 12 L/kg

Structure (SMILES) | test | system | conditions | scale | endpoint | value
CNCc1ccc(-c2[nH]c3cc(F)cc4c3c2CCNC4=O)cc1 | refers to: Dyspnea | human patients | oral, 600 mg twice daily, grade 3 |  | patients with adverse event | 0%
COc1cc(/C=N\NC(=O)c2ccc(Br)cc2)ccc1OC(=O)c1cccs1 | haemolysis | sheep erythrocytes | 1 h, pH 7.5 |  | HC50 | > 128 µg/mL
Cl.[2H]C([2H])([2H])CC(=O)c1cnc(NC(=O)C2CC2)cc1Nc1cccc(-c2ncn(C([2H])([2H])[2H])n2)c1OC |  | human, fasted, multiple dose | oral, 10 mg once daily, tablet, day 14, geometric mean |  | CL/F | 12.6 L/h
C[C@@H](Oc1ccc(S(C)(=O)=O)cc1C(=O)N1C[C@@H]2C[C@]2(c2cc(C(F)(F)F)on2)C1)C(F)(F)F | LC-MS/MS | elderly human subjects, plasma | oral, 50 mg once daily, steady state, multiple doses |  | half-life | 40.9 h
NCCONC(=O)[C@@H]1CC[C@@H]2CN1C(=O)N2OS(=O)(=O)O | refers to: urinary leukocytes positive | healthy Chinese men | intravenous, 2 g, treatment-emergent |  | adverse event incidence | 0%
O=C1NCCc2nc(OCc3cccc(F)c3)ccc21 | refers to: Vasodilatation | Sprague-Dawley rat, male | oral, 100 mg/kg, 1 h, score 0 none to 2 full | direction not given | Irwin test score | 0
CCCCCCCCCCCCCCCC(=O)N[C@@H](CCC(=O)NCCCC[C@@H]1NC(=O)[C@H]([C@@H](C)CC)NC(=O)[C@@H](NC(=O)[C@@H]2CCCN2C(=O)[C@H](Cc2ccccc2)NC(=O)[C@H](Cc2c[nH]cn2)NC(=O)[C@@H](NC(=O)[C@H](CC(=O)O)NC(=O)CC(C)C)[C@@H](C)O)CSSC[C@@H](C(=O)N[C@@H](CCCCN)C(N)=O)NC(=O)CNC(=O)[C@H](CCCCN)NC(=O)[C@H](CO)NC(=O)[C@H](CCCNC(=N)N)NC(=O)[C@@H]2CCCN2C(=O)[C@H](CCC(=O)O)NC(=O)[C@H](Cc2ccccc2)NC1=O)C(=O)O |  | healthy volunteers, plasma | subcutaneous, 60 mg single, lyophilised formulation |  | CL/F | 1.48 ± 0.629 L/h
O=C(Nc1nc2cccc(-c3ccc(CN4CCS(=O)(=O)CC4)cc3)n2n1)C1CC1 | refers to: blood triglycerides increased | rheumatoid arthritis patients | oral, 200 mg once daily, 4 weeks, any relatedness |  | treatment-emergent adverse events | 0%
COc1ccc([C@@H](O)c2cc(-c3ncnc4cc(N5CCOCC5)ccc34)c(F)cc2Cl)nn1 |  | human, plasma | oral, 300 mg twice daily, single dose, geometric mean |  | AUC(0-12) | 9290 ng·h/mL
NC1(C(=O)N[C@@H](CCO)c2ccc(Cl)cc2)CCN(c2nc[nH]c3nccc2-3)CC1 | LC-MS/MS, non-compartmental | human patients, plasma | 160/400 mg cohort, cycle 2, median, with: enzalutamide |  | Tmax | 2 h
CCN1/C(=C/C(C)=O)Sc2ccc(F)cc21 |  | cynomolgus monkey | oral, 10 mg/kg, 0.5 h post-dose | reference: pre-dose | QTc interval change | 98.7 ± 3.4%
Cc1ccc2ncccc2c1NS(=O)(=O)c1cccc(Cl)c1O | colloidal aggregate formation, dynamic light scattering | 50 mM potassium phosphate buffer | 200 µM, pH 7.0, 1% DMSO | higher = more aggregation | DLS scattered light intensity | 325000 counts/s
COc1cc(N2CCC(N3CCN(C)CC3)CC2)ccc1Nc1ncc(Cl)c(Nc2ccccc2P(C)(C)=O)n1 |  | healthy subjects, plasma | oral, 90 mg, single dose, geometric mean |  | AUC(0-120 h) | 6740 ng·h/mL
CC(=O)N(C)[C@H]1CCN(C(=O)c2cnc3c(c2)C[C@](C)(c2ccc(F)cc2)N3)C1 | refers to: urinary frequency | human | oral, 15 mg once daily |  | adverse event duration | 5 days
COc1ccnc(C(=O)NCC(=O)O)c1O | soil adsorption | soil | pH 6.9, organic carbon 0.8 % |  | Freundlich coefficient KF | 7.08 mL/g
CCCOc1ccc([C@H]2CNC(=O)N2c2ccc3[nH]cnc3c2)cc1 |  | human volunteers fasted, plasma | oral tablet, 200 mg single dose, crossover, geometric mean |  | AUC(0-tlast) | 2320 ng·h/mL
CNC(=O)c1ccc(-c2cnc3ncc(Cc4ccc5ncccc5c4)n3n2)cc1F | refers to: Pyrexia, all grades | cancer patients | oral, dose not given, dose escalation, any causality |  | patients with adverse event | 16%
O=C(Nc1cnccc1Cl)N1CCN(Cc2ccc3c(c2)OC(F)(F)O3)CC1 |  | healthy young men, plasma | oral, 10 mg once daily, day 10 |  | CL/F | 17.7 L/h
Cc1cnc(N2CC3(CCOCC3)C2)c(C(=O)Nc2ccc(C(=O)N3CCc4cc(C(=O)Nc5c(C)cccc5F)sc4-c4ccccc43)cc2)c1 |  | human, nasal epithelial lining fluid | inhaled, 5 mg twice daily, 36 h |  | concentration | 11400 ng/mL

Excerpt of the above:
Structure (SMILES) | test | system | conditions | scale | endpoint | value
[18F]c1ccc(-c2ccc3c(c2)[nH]c2ccncc23)cn1 | ex vivo biodistribution | B6SJL mouse, normal, pancreas | intravenous, 30 min |  | SUV | 1.38 ± 0.515
C[C@@H](Cn1ccc(-c2ccc(C#N)c(Cl)c2)n1)NC(=O)c1cc([C@@H](C)O)[nH]n1 |  | human, fasted, plasma | oral solution, 300 mg 14C-darolutamide, geometric mean |  | AUC(0-tlast) | 6920 ng·h/mL
O=C(Nc1cnccc1Cl)N1CCN(Cc2ccc3c(c2)OC(F)(F)O3)CC1 |  | healthy young men, plasma | oral, 10 mg once daily, day 10 |  | CL/F | 17.7 L/h
CCCCCCCCCCCCCCCC(=O)N[C@@H](CCC(=O)NCCCC[C@@H]1NC(=O)[C@H]([C@@H](C)CC)NC(=O)[C@@H](NC(=O)[C@@H]2CCCN2C(=O)[C@H](Cc2ccccc2)NC(=O)[C@H](Cc2c[nH]cn2)NC(=O)[C@@H](NC(=O)[C@H](CC(=O)O)NC(=O)CC(C)C)[C@@H](C)O)CSSC[C@@H](C(=O)N[C@@H](CCCCN)C(N)=O)NC(=O)CNC(=O)[C@H](CCCCN)NC(=O)[C@H](CO)NC(=O)[C@H](CCCNC(=N)N)NC(=O)[C@@H]2CCCN2C(=O)[C@H](CCC(=O)O)NC(=O)[C@H](Cc2ccccc2)NC1=O)C(=O)O |  | healthy volunteers, plasma | subcutaneous, 60 mg single, lyophilised formulation |  | CL/F | 1.48 ± 0.629 L/h
C[C@@H](Oc1ccc(S(C)(=O)=O)cc1C(=O)N1C[C@@H]2C[C@]2(c2cc(C(F)(F)F)on2)C1)C(F)(F)F | LC-MS/MS | elderly human subjects, plasma | oral, 50 mg once daily, steady state, multiple doses |  | half-life | 40.9 h
O=C(O)CC[C@H](NC(=O)N[C@@H](CCCCNC(=O)[C@H](Cc1ccc2ccccc2c1)NC(=O)[C@H]1CC[C@H](CNC(=O)CN2CCN(CC(=O)O)CCN(CC(=O)O)CCN(CC(=O)O)CC2)CC1)C(=O)O)C(=O)O |  | male BALB/c nude mice, LS174T-PSMA xenografts, liver | intravenous, 0.3 nmol, 2 h, radiolabelled (111In or 99mTc) | reference: tumour over liver | tumour-to-tissue ratio | 267 ± 73.5
